Results from different studies.
Lines come from different studies, so protocols differ. ± marks the error that the study gave.

Structure (SMILES)	system	setting	AUC(0-inf)
CC(=O)NCc1cc2c(cc1F)C(=O)N(C1CCC(=O)NC1=O)C2 (stereo not drawn)	male CD-1 mouse, plasma	oral, 10 mg/kg of parent drug	12.3 ± 9.8 ng·h/mL
CCOC(=O)C1=C(CN2CCC[C@@H]2C(=O)Nc2ccc(B(O)O)cc2)NC(c2nccs2)=N[C@H]1c1ccc(F)cc1Br	ICR mouse, plasma	oral, 10 mg/kg	377 ± 23.7 ng·h/mL
CC(=O)N(C)C1CCN(c2cc(F)cc(NC(=O)c3cc4c(F)ccc(C)c4[nH]3)c2)C1 (stereo not drawn)	CD1 mouse	intravenous, 1 mg/kg	697 ng·h/mL
CC(C)[C@@H](CS(=O)(=O)C(C)C)N1C(=O)[C@@](C)(CC(=O)O)C[C@H](c2cccc(Cl)c2)[C@H]1c1ccc(Cl)cc1	FVB mouse, wild type, spinal cord	intravenous, 20 mg/kg	106 ± 13.1 ng·h/mL
COc1ccc2nc(-c3ccccn3)c(N(C)c3ccc(F)cc3)n2c1	CD1 mouse, male, fasted, plasma	oral, 50 mg/kg, together with: ABT 50 mg/kg	1320 ng·h/mL
O=[N+]([O-])c1ccc(-c2ccc(O)cc2)c2cccnc12	male ICR mouse, plasma	intravenous, 1 mg/kg	140 ng·h/mL
O=C1CCC(N2Cc3cc(CO)c(F)cc3C2=O)C(=O)N1 (stereo not drawn)	male CD-1 mouse, plasma	oral, 10 mg/kg of parent drug	85.1 ± 39.4 ng·h/mL
Cc1[nH]c(C)c(S(=O)(=O)Nc2ccc(C(F)(F)F)c(Cl)c2)c1C(=O)N1CCC(F)(F)C1	mouse, plasma	intraperitoneal, 40 mg/kg	97600 ng·h/g
CC[C@H](C)[C@@H]1NC(=O)[C@@](C)(NC(=O)[C@H](CCCNC(=N)N)NC(=O)[C@H](CC(C)C)NC(=O)[C@@H](NC(=O)[C@H](CCC(N)=O)NC(=O)[C@H](CC(C)C)NC(C)=O)[C@@H](C)O)CCCC=CCCC[C@@](C)(C(=O)N[C@@H](CC(C)C)C(=O)N[C@@H](Cc2ccc3ccccc3c2)C(N)=O)NC(=O)[C@H](CCCNC(=N)N)NC(=O)[C@H](CCC(N)=O)NC1=O	male BALB/c mouse, plasma	intramuscular, 5 mg/kg	45300 ng·h/mL
